Published values from different studies.
Protocols differ between the studies behind these lines.
Organism: Acinetobacter baumannii

SMILES	technique	strain	medium	time	temperature	notes	MIC
CC(C)C[C@@H](NC(=O)[C@@H](CCCNC(=N)N)NC(=O)[C@H](N)CCCNC(=N)N)C(=O)N[C@H](CC(C)C)C(=O)N[C@H](CCCNC(=N)N)C(=O)N[C@H](CCCCN)C(=O)N[C@H](CC(C)C)C(=O)N[C@H](CCCCN)C(=O)NCC(=O)N[C@H](CCCCN)C(=O)N[C@H](CCCCN)C(=O)N[C@H](CC(C)C)C(=O)N[C@H](Cc1ccc(O)cc1)C(=O)N[C@H](CC(C)C)C(=O)N[C@H](Cc1ccc(O)cc1)C(=O)N[C@H](Cc1ccccc1)C(=O)N[C@H](CCCCN)C(=O)N[C@H](CC(C)C)C(=O)N[C@H](CCC(N)=O)C(=O)N[C@H](CC(C)C)C(=O)N[C@H](CC(C)C)C(=O)N[C@H](CCCCN)C(=O)N[C@H](CCCCN)C(N)=O		KCCM 40203	Mueller-Hinton broth	24 h			4 µM
CCn1c(-c2ccc(F)cc2)c(-c2ccc(F)cc2)n(CC)c1=[Se]	broth microdilution	carbapenem-resistant		24 h			> 40 µM
CCCCCCCCCC(=O)NCCCC[C@H](NC(=O)[C@H](CCCCN)NC(=O)[C@@H]1CSCC(=O)N[C@@H](CCCCN)C(=O)N[C@@H](CC(C)C)C(=O)N[C@@H](CCCCN)C(=O)NCCCC[C@@H]2NC(=O)[C@H](CCCCN)NC(=O)[C@H](CC(C)C)NC(=O)[C@H](CCCCN)NC(=O)CSC[C@H](NC(=O)[C@H](CC(C)C)NC(=O)[C@H](CC(C)C)NC(=O)[C@H](CCCCN)NC2=O)C(=O)N[C@@H](CC(C)C)C(=O)N[C@@H](CC(C)C)C(=O)N[C@@H](CC(C)C)C(=O)N1)C(N)=O	broth microdilution	ATCC 19606					8 µg/mL
CC[C@H](C)[C@H](NC(=O)[C@@H](CCCNC(=N)N)NC(=O)[C@H](CCCNC(=N)N)NC(=O)[C@@H]1CCCN1C(=O)[C@@H]1CCCN1C(=O)[C@H](CCCNC(=N)N)NC(=O)[C@@H]1CCCN1C(=O)[C@H](CCCNC(=N)N)NC(=O)[C@@H]1CCCN1C(=O)[C@H](CC(C)C)NC(=O)[C@H](Cc1ccc(O)cc1)NC(=O)[C@H](Cc1ccc(O)cc1)NC(=O)[C@@H]1CCCN1C(=O)[C@H](CCCCN)NC(=O)[C@H](CC(=O)O)NC(=O)[C@@H](N)C(C)C)C(=O)N[C@@H](Cc1ccc(O)cc1)C(=O)N[C@@H](CC(N)=O)C(=O)N[C@H](CCCNC(=N)N)C(N)=O	broth microdilution	DSM 30008		18 h	37 °C	25% MHB2	16 µg/mL
C#CCOc1ccc(CN[C@@]2(C)C[C@H](O[C@H]3[C@H](Oc4c5cc6cc4Oc4ccc(cc4Cl)[C@@H](O)[C@@H](NC(=O)[C@@H](CC(C)C)NC)C(=O)N[C@@H](CC(N)=O)C(=O)N[C@H]6C(=O)N[C@H]4C(=O)N[C@H](C(=O)N[C@H](C(=O)NCC(N)=O)c6cc(O)cc(O)c6-c6cc4ccc6O)[C@H](O)c4ccc(c(Cl)c4)O5)O[C@H](CO)[C@@H](O)[C@@H]3O)O[C@@H](C)[C@H]2O)cc1OC	broth microdilution	BAA-747					76 µM
CC[C@H](C)[C@H](NC(=O)[C@@H](CCCNC(=N)N)NC(=O)[C@H](CCCNC(=N)N)NC(=O)[C@@H]1CCCN1C(=O)[C@@H]1CCCN1C(=O)[C@H](CCCNC(=N)N)NC(=O)[C@@H]1CCCN1C(=O)[C@H](CCCNC(=N)N)NC(=O)[C@@H]1CCCN1C(=O)[C@H](CC(C)C)NC(=O)[C@H](Cc1ccc(O)cc1)NC(=O)[C@H](Cc1ccccc1)NC(=O)[C@@H]1CCCN1C(=O)[C@H](CCCCN)NC(=O)[C@H](CC(=O)O)NC(=O)[C@@H](N)C(C)C)C(=O)N[C@@H](Cc1ccc(O)cc1)C(=O)N[C@@H](CC(N)=O)C(=O)N[C@H](CCCNC(=N)N)C(N)=O	broth microdilution	DSM 30008		18 h	37 °C	25% MHB2	32 µg/mL
CC[C@H](C)[C@H](NC(=O)[C@H](C)NC(=O)[C@@H](NC(=O)[C@H](CC(=O)O)NC(=O)[C@H](CCCCN)NC(=O)[C@H](CO)NC(=O)[C@@H](NC(=O)[C@H](CC(N)=O)NC(=O)[C@H](C)NC(=O)[C@@H](NC(=O)[C@H](CCC(=O)O)NC(=O)[C@H](CCCCN)NC(=O)[C@@H](NC(=O)[C@@H](NC(=O)[C@H](Cc1c[nH]cn1)NC(=O)[C@H](CCCCN)NC(=O)[C@@H](NC(=O)[C@H](CCCCN)NC(=O)[C@H](CCCCN)NC(=O)[C@@H](NC(=O)[C@H](CC(C)C)NC(=O)[C@H](CCCCN)NC(=O)[C@H](CC(N)=O)NC(=O)[C@H](Cc1ccccc1)NC(=O)[C@H](CCCNC(=N)N)NC(=O)[C@H](CCCCN)NC(=O)[C@H](CCCNC(=N)N)NC(=O)[C@H](Cc1ccccc1)NC(=O)CN)C(C)C)C(C)C)[C@@H](C)O)[C@@H](C)CC)[C@@H](C)O)C(C)C)C(C)C)C(=O)N[C@H](C(=O)N[C@@H](C)C(=O)NCC(=O)N[C@@H](CO)C(=O)NCC(=O)N[C@H](C(=O)N[C@@H](C)C(=O)N[C@H](C(=O)NCC(=O)N[C@@H](C)C(=O)N[C@@H](C)C(=O)N[C@@H](CCSC)C(N)=O)C(C)C)C(C)C)C(C)C	broth microdilution	RKI 19/09	CAMHB with 10% mouse serum			150 mM NaCl	0.5 µg/mL
c1ccc2c(c1)nc(CNCC13CC4CC(CC(C4)C1)C3)n2CC1CCCCC1		ATCC 17961					> 128 µg/mL
CCCCCCCC(=O)N[C@@H](CCN)C(=O)N[C@@H](C)C(=O)N[C@@H](CCN)C(=O)N[C@H]1CCNC(=O)[C@H]([C@@H](C)O)NC(=O)[C@H](CCN)NC(=O)[C@H](CCN)NC(=O)[C@H](CC(C)C)NC(=O)[C@@H](Cc2ccccc2)NC(=O)[C@H](CCN)NC1=O	CLSI broth microdilution	248-01-C.248	CAMHB	20 h	37 °C		> 512 µg/mL
CC[C@H](C)[C@H](NC(=O)[C@@H](CCCNC(=N)N)NC(=O)[C@H](CCCNC(=N)N)NC(=O)[C@@H]1CCCN1C(=O)[C@@H]1CCCN1C(=O)[C@H](CCCNC(=N)N)NC(=O)[C@@H]1CCCN1C(=O)[C@H](CCCNC(=N)N)NC(=O)[C@@H]1CCCN1C(=O)[C@H](CC(C)C)NC(=O)[C@H](Cc1ccc(O)cc1)NC(=O)[C@H](Cc1c[nH]cn1)NC(=O)[C@@H]1CCCN1C(=O)[C@H](CCCCN)NC(=O)[C@H](CC(=O)O)NC(=O)[C@@H](N)C(C)C)C(=O)N[C@@H](Cc1ccc(O)cc1)C(=O)N[C@@H](CC(N)=O)C(=O)N[C@H](CCCNC(=N)N)C(N)=O	broth microdilution	DSM 30008		18 h	37 °C	25% MHB2	16 µg/mL
CCCCCCCC(=O)N[C@@H](CCN)C(=O)N[C@H](C(=O)N[C@@H](CCN)C(=O)N[C@H]1CCNC(=O)[C@H](C)NC(=O)[C@H](CCN)NC(=O)[C@H](CCN)NC(=O)[C@H](CC(C)C)NC(=O)[C@@H](Cc2ccccc2)NC(=O)[C@H](CCN)NC1=O)[C@@H](C)O	CLSI broth microdilution	248-01-C.248	CAMHB	20 h	37 °C		0.5 µg/mL
CC[C@H](C)[C@H](NC(=O)[C@H](CCCNC(=N)N)NC(=O)[C@H](CO)NC(=O)[C@H](Cc1ccc(O)cc1)NC(=O)[C@@H](NC(=O)[C@@H](NC(=O)[C@H](C)NC(=O)CNC(=O)[C@H](CCCCN)NC(=O)[C@H](CCCCN)NC(=O)CCNC(=O)CCCCCNC(=O)[C@H](CCCNC(=N)N)NC(=O)CCCCCNC(=O)[C@H](CCCNC(=N)N)NC(=O)[C@H](CCCNC(=N)N)NC(=O)CCCCCNC(=O)[C@H](CCCNC(=N)N)NC(=O)[C@H](CCCNC(=N)N)NC(=O)CCCCCNC(=O)[C@H](CCCNC(=N)N)NC(=O)[C@H](CCCNC(=N)N)NC(=O)CCCCCNC(=O)[C@@H](N)CCCNC(=N)N)C(C)C)[C@@H](C)O)C(=O)N[C@@H](CO)C(=O)NCC(=O)N[C@@H](CCC(N)=O)C(=O)N[C@@H](Cc1ccc(O)cc1)C(=O)N[C@@H](CCCCN)C(=O)O	broth microdilution	ATCC 19606	Mueller-Hinton broth				12 µM
CCCCCCCC(=O)N[C@@H](CCN)C(=O)N[C@H](C(=O)N[C@@H](CCN)C(=O)N[C@H]1CCNC(=O)[C@H]([C@@H](C)O)NC(=O)[C@H](CCN)NC(=O)[C@H](CCN)NC(=O)[C@H](CCCc2ccccc2)NC(=O)[C@@H](Cc2ccccc2)NC(=O)[C@H](CCN)NC1=O)[C@@H](C)O	broth microdilution	ATCC 19606, colistin-susceptible					0.125 to 0.5 µg/mL
Oc1c(Br)cc(Br)c2nc3cc(Cl)ccc3nc12	OD600	19606					> 100 µM
CCCCCCCC(=O)N[C@@H](CCN)C(=O)N[C@H](C(=O)N[C@@H](CCN)C(=O)N[C@H]1CCNC(=O)[C@H]([C@@H](C)O)NC(=O)[C@H](CCN)NC(=O)[C@H](CCN)NC(=O)[C@H](CC(C)C)NC(=O)[C@@H](C)NC(=O)[C@H](CCN)NC1=O)[C@@H](C)O	CLSI broth microdilution	246-01-C.246	CAMHB	20 h	37 °C		256 µg/mL
CC(=O)N[C@H](Cc1c(F)c(F)c(F)c(F)c1F)C(=O)N[C@@H](CCN)C(=O)N[C@H](C(=O)N[C@@H](CCN)C(=O)N[C@H]1CCNC(=O)[C@H]([C@@H](C)O)NC(=O)[C@H](CCN)NC(=O)[C@H](CCN)NC(=O)[C@H](CC(C)C)NC(=O)[C@@H](Cc2ccccc2)NC(=O)[C@H](CCN)NC1=O)[C@@H](C)O	broth microdilution	colistin-resistant isolates					8 to 16 µg/mL
CC[C@H](C)[C@H](NC(=O)[C@H](Cc1c[nH]c2ccccc12)NC(=O)[C@H](Cc1ccc(O)cc1)NC(=O)[C@H](CCCCN)NC(=O)[C@H](CC(C)C)NC(=O)[C@@H](N)CO)C(=O)N[C@@H](CCCNC(=N)N)C(=O)N[C@@H](Cc1ccc(O)cc1)C(=O)N[C@@H](CCCCN)C(=O)N[C@@H](CCCNC(=N)N)C(=O)N[C@@H](CCC(N)=O)C(=O)NCC(=O)N[C@@H](C)C(=O)N[C@@H](C)C(=O)N[C@@H](CCCNC(=N)N)C(=O)N[C@@H](Cc1ccccc1)C(N)=O	broth dilution	ATCC 19606					6.3 µM
CCCCCCCC(=O)N[C@@H](CCN)C(=O)N[C@H](C(=O)N[C@@H](CCN)C(=O)N[C@H]1CCNC(=O)[C@H]([C@@H](C)O)NC(=O)[C@H](CCN)NC(=O)[C@H](CCN)NC(=O)[C@H](CC(C)C)NC(=O)[C@@H](Cc2cc(F)c(F)c(F)c2)NC(=O)[C@H](CCN)NC1=O)[C@@H](C)O	broth microdilution	ATCC 19606, colistin-susceptible					< 0.125 µg/mL
CC[C@H](C)[C@H](NC(=O)[C@@H](CCCNC(=N)N)NC(=O)[C@H](CCCNC(=N)N)NC(=O)[C@H](CO)NC(=O)[C@H](Cc1c[nH]c2ccccc12)NC(=O)[C@H](CCCNC(=N)N)NC(=O)[C@@H]1CCCN1C(=O)[C@H](CCCNC(=N)N)NC(=O)[C@@H]1CCCN1C(=O)[C@H](CC(C)C)NC(=O)[C@H](Cc1ccc(O)cc1)NC(=O)[C@@H]1CCCN1C(=O)[C@@H]1CCCN1C(=O)[C@H](CCCCN)NC(=O)[C@H](CC(=O)O)NC(=O)[C@@H](N)C(C)C)C(=O)N[C@@H](Cc1ccc(O)cc1)C(=O)N[C@@H](CC(N)=O)C(=O)N[C@H](CCCNC(=N)N)C(N)=O	broth microdilution	DSM 30008		18 h	37 °C	25% MHB2	32 µg/mL
